Measurements of several laboratories.
Each numbered part is a random draw from the data of one study; scales do not carry over between parts. Changes are numbered by the printed parent chain.

Set 1 — technique: competition protein-binding microarray; form: double-stranded DNA, one strand shown; sample: in vitro; tested at: 2 µM; added: Cbf1 competitor, 0.05 µM; direction: higher = stronger binding; shared flanks, not repeated: … GTCTTGATTCGCTTGACGCTGCTG
Target: Phosphate system positive regulatory protein PHO4, full length, GST-tagged (PHO4, Saccharomyces cerevisiae, UniProt P07270, residues 1-312)
Notes: whole 60-bp probe, lowest competitor level
Construct (chain): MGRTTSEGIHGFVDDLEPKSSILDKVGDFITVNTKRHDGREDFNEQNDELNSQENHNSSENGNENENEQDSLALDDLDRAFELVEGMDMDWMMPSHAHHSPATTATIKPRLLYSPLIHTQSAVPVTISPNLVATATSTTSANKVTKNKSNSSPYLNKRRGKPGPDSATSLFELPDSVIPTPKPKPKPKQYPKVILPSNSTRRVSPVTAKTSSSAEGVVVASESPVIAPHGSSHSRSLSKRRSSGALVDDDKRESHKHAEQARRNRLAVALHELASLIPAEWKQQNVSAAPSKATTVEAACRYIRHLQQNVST
| Oligonucleotide | fluorescence intensity [a.u.] |
| --- | --- |
| GATGACATTATGGTTAACATGATAAAGGATGAATTG | 4880 |
| TCGCATAGACGAACCCGCGTGCGATTGGTAAATTGC | 8260 |
| AAGATTGCTGAAGACCACATGGAGATACTACGCTCC | 7820 |
| CGTCCTAGTGATTTTCACGTGGGATCCATGAGGAAG | 16900 |
| TTTGACCTCTTCGACCACGTGTGTTAGCTGGTCATT | 19500 |
| ATTCTTGGTACTTTAGTCGTGATTGTTTGACATGTC | 4870 |
| TTCTTCTCCACCTTCCTCGTGATGGTCAGAGCCATC | 8540 |
| ACCATACACTATCAAGCAATATTATACTTGTTCTTT | 4770 |
| TTATCATTGAAAATTCACGTGATGGCAATATTCCGG | 12100 |
| CATACCCAACCTTGTCACTTGACTTAAGATATTTGT | 3520 |
| TGCTATGTCCCTTCGACCGTGATGGAATGGGAGTGG | 5120 |
| CGAAACATAACGATAAACGTGGTGAAGTTTTCGATT | 11600 |
| TAAACAATACTTAAAAACGTGTTGGAACTTTTACGA | 12500 |
| AAGCGCAAGTGATGGAATGTGATGCTTAAAGGCTAT | 4880 |
| AAATTACTAAGTTGTCACGTGACTTACCCCGTATGA | 11700 |
| CATACCCAACCTTGCACCGTGGGTGAAGATATTTGT | 8700 |
| AAGATTCAGCCTTAGCACGCACCAATTCTTGTTCCA | 9300 |
| TGTCGTCTCGGTTTTCACGTTGCTAATCGAACGATC | 7640 |
| CATACCCAACCTTTTCACGTGAAGTAAGATATTTGT | 11500 |
| TTTAATGGTCCAAAGCATGTGCTAAACTGCCACAGA | 10000 |

Set 2 — technique: RNAcompete; form: RNA; sample: in vitro; tested at: 20 nM; notes: 7-mer, probes averaged, single round; baseline: mean of 7-mers; direction: higher = stronger binding
Target: PABPC1L2, full length, GST fusion (mouse, UniProt A0ABA7IW68)
| Oligonucleotide | 7-mer Z-score |
| --- | --- |
| GCGAUUG | 0.00436 |
| CGGGGUA | -0.0192 |
| CGUGGAC | 0.133 |
| CGGCACC | -0.193 |
| ACAUUUU | -0.0935 |
| CCUAACU | -0.273 |
| CCCCUCC | -0.505 |
| AUAACAG | 0.153 |
| UGACCCC | -0.269 |
| AUAAUCU | -0.0373 |
| AGAGGAG | 0.109 |
| AUAGGGG | 0.394 |
| CGCUACU | -0.356 |
| UAAUACU | -0.164 |
| CUGAACG | -0.124 |
| GCGGGGU | 0.178 |
| CACCAGA | -0.0192 |
| CUGCUGC | -0.162 |
| UAGCAAU | -0.0881 |
| GAGUAUA | 0.0696 |

Set 3 — technique: protein binding microarray; form: double-stranded DNA, one strand shown; sample: in vitro; tested at: not given; baseline: not given; direction: higher = stronger binding
Target: Histone acetyltransferase KAT6A, winged helix 2, GST fusion (KAT6A, Homo sapiens, UniProt Q92794, residues 85-181)
Notes: 8-mer, flanks averaged, mean of 2 arrays, mostly near background
Residues (chain): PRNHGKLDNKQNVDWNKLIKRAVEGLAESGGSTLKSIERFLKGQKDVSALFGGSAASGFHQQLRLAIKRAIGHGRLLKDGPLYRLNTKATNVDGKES
| Oligonucleotide | E-score |
| --- | --- |
| ATAGAATA | 0.0931 |
| ATATTCGA | -0.0548 |
| CGTCGCCA | 0.146 |
| ACCGGACG | 0.181 |
| AAGTAACG | -0.151 |
| AGGAGGAA | 0.0485 |
| ACCTCGGG | 0.0385 |
| GCCTGACC | 0.0677 |
| GAGAGCCA | 0.14 |
| ACCAGTCT | -0.0561 |
| GAGCCGGC | 0.203 |
| AAGCCATA | -0.105 |
| ATCACGGC | 0.0176 |
| ATTTAACG | 0.0474 |
| AAACCTGG | 0.0467 |
| GGAAAGTA | -0.137 |
| GAAGCGCC | -0.0244 |
| AGAACTCC | -0.0979 |
| AAAGTAGG | -0.0822 |
| ATGGGTCC | -0.151 |
| AATGAGAA | 0.0565 |
| GGGTATTA | -0.0383 |
| CCCCTAGG | -0.131 |

Set 4 — technique: RNA Bind-n-Seq; form: RNA; sample: in vitro; tested at: 200 nM; notes: whole 134-nt RNA, ends assumed; added: 150 mM LiCl; baseline: input library; direction: higher = stronger binding; each molecule: 7-deaza-guanosine replaces G
Target: Fragile X messenger ribonucleoprotein 1, C-terminal low-complexity region (Fmr1, Mus musculus, UniProt P35922)
Shared flanks, not repeated: GGGAGUUCUACAGUCCGACGAUC … UGGAAUUCUCGGGUGUCAAGG
| Oligonucleotide | log2 enrichment |
| --- | --- |
| CAAGUCCUGUGCUACACAUCGUAUGUACCGAAUCGGUUUUGGGUUUUGGUUUUGGAAAGUAUUAUGUUACGCCGUUCGGAUCUGCACUUC | -1.47 |
| UAAUUGUGAUCUACAUUUUAAAAUAUCAAGAGAUCGUCUCAGUGCUUCUUCCCUUACAAUGGAGAGUUUUGCUUUUCUUUGGGCUGGAGG | -2.89 |
| UGGGAGGUGGAUUUUGUUUAUUUUUUUCGCUCAUUUCCAGGGGUGGGAAUUUUUUUUUAAUAUGUGUCAUGAAUAAAGUUGUUUUUGAAA | 0.434 |
| AGUCCUGUGCUACACAUCGUAUGUACCGAAUCGGUUUUUGGUUUUUGGGUUUUUGGGAAAGUAUUAUGUUACGCCGUUCGGAUCUGCACU | -1.88 |
| ACCAUGCAGGUGAAAAUCUUUGGGAAGUGGGGCAAGGGGGGGAUAGGGAGGGGGGUAACACUUUGGGAACAGGUGGUCCCAGGUCGUUUC | 1.24 |
| UCCUGUGCUACACAUCGUAUGUACCGAAUCGGGCCCCCGGGGCCCCCGGGCCCCCGGGGAAAGUAUUAUGUUACGCCGUUCGGAUCUGCA | -2.68 |
| AAGUCCUGUGCUACACAUCGUAUGUACCGAAUCGGGGUGGGGAGGGGAAAAAGGGGAAAGUAUUAUGUUACGCCGUUCGGAUCUGCACUU | 0.492 |
| AAGUCCUGUGCUACACAUCGUAUGUACCGAAUCGGGAAAAGGGGAAAAGGAAAAGGGAAAGUAUUAUGUUACGCCGUUCGGAUCUGCACU | 0.11 |
| AAGUCCUGUGCUACACAUCGUAUGUACCGAAUCGGAAAAAAAGGAAAAAGGUUUGGAAAGUAUUAUGUUACGCCGUUCGGAUCUGCACUU | -3.2 |
| CCUGUGCUACACAUCGUAUGUACCGAAUCGGGCCCCCCCGGGCCCCCCCGGCCCCCCCGGAAAGUAUUAUGUUACGCCGUUCGGAUCUGC | 1.33 |
| AGUCCUGUGCUACACAUCGUAUGUACCGAAUCGGAAAAAAAGGUUUGGAAAAAAAGGAAAGUAUUAUGUUACGCCGUUCGGAUCUGCACU | -2.74 |

Set 5 — technique: protein-binding microarray; form: double-stranded DNA, one strand shown; sample: in vitro; tested at: 250 nM; notes: 60-bp whole probe; added: salmon DNA 0.4 mg/ml; baseline: random background probes; direction: higher = stronger binding; shared flanks, not repeated: GCCTAGCAC … GTCTTGATTCGCTTGACGCTGCTG
Target: Interferon regulatory factor 5, full length, phosphomimetic (IRF5, Homo sapiens, UniProt Q13568-2, residues 1-514, K96S/S451D/S453D/S456D/S462D)
| Oligonucleotide | log fluorescence [z-score] |
| --- | --- |
| GTGAGTCCCAAGAATGGTGTGGTGCTA | -0.478 |
| TCATATGCCGACTTTGGAACTGTGCTA | 0.178 |
| TTAGCTTTCGGTTTCGGTTAGTGCTAG | 12.3 |
| GACGATCTCAGAGTGGAGACGTGCTAG | -0.146 |
| TAAGAACTGAGACTGGATTAGTGCTAG | -0.082 |
| TCAGTCATCCATCTGAAACTGTGCTAG | 0.526 |
| TTAGGTATCGACTTTAGGTTAGTGCTA | 2.89 |
| CTTCATGTGCCTTTATATACGTGCTAG | 0.521 |
| ATTGCTTTCTCTTTCATTGCGTGCTAG | 6.35 |
| CTTTCCTTTGCTTTCTCCCAGTGCTAG | 2.05 |
| CTAGAACTGAGTATCGATTAGTGCTAG | 7.05 |
| TAGAGGGAGTAAAGGAAAGAGTGCTAG | -0.391 |
| TCGTATGTGACCTTTTTAAGAGTGCTA | 0.382 |
| ATCATTTTCTCTGTTCTAGAGTGCTAG | 2.24 |
| TTAGATCTCCGTATCGATTAGTGCTAG | 3.97 |
| GACAATCTCAGTATCGAGACGTGCTAG | 2.09 |
| TTAGGACTAGACACTGGGTTAGTGCTA | -0.234 |
| TTAGGTTTCCATTTCCTTTAGTGCTAG | 1.84 |
| GCCGATTCCAGTTTCGAGACGTGCTAG | 5.75 |
| AACGGTATCGGGACTGGGGACGTGCTA | 1.55 |
| GACGGACTGGACACTGGGAACGTGCTA | -0.66 |
| TGAGATTTCAGTATCGATTAGTGCTAG | 7.79 |
| TTCGGACTGGGTCTCGGTTAGTGCTAG | 0.124 |
| TTAGATATCAGACAGGATTAGTGCTAG | 0.138 |
| GACGGACAGGACACTGGGGACGTGCTA | -0.56 |

Set 6 — target: CCNB2, cyclin fold, Cln2 fusion (human); technique: yeast growth competition, sequencing; sample: yeast; notes: weak parent motif; baseline: not given; direction: higher = stronger binding
Parent: KIF20B docking peptide (human); KRAKRKLYTSEIS
| Substitution | normalised enrichment score |
| --- | --- |
| KRAKAKLYTSEIS [R5A] | 0.0128 |
| KRAKRKAYTSEIS [L7A] | 0.708 |
| KRAKRKLYTAEIS [S10A] | 0.389 |
| KRAARKLYTSEIS [K4A] | 0.541 |
| KRAKRKLYASEIS [T9A] | 0.589 |
| KRAKRKLATSEIS [Y8A] | 0.462 |

Further values, each from its own experiment
| Substance | target | assay | system | conditions | scale | endpoint | value |
| --- | --- | --- | --- | --- | --- | --- | --- |
| PhoQ, residues 284 288 289 292 302 303 ASASEQ | PhoP, residues 12 14 15 18 19 TPLRH (Escherichia coli, UniProt P23836) | Sort-seq, refers to: YFP reporter | E. coli | PhoQ-PhoP variant library, added: 10 µM Mg2+ | baseline: high Mg2+ state, higher = stronger signaling | fold induction | 1.03 |

Excerpt of the above (set 2):
| Oligonucleotide | 7-mer Z-score |
| --- | --- |
| CGCUACU | -0.356 |
| AUAGGGG | 0.394 |
| GAGUAUA | 0.0696 |
| CUGAACG | -0.124 |
| GCGGGGU | 0.178 |
| ACAUUUU | -0.0935 |
| GCGAUUG | 0.00436 |
